Measured values of several laboratories.
Each numbered part is a random draw from the data of one study; scales do not carry over between parts.

Series 1 — technique: RNA Bind-n-Seq; molecule type: RNA; sample: in vitro; tested at: 365 nM; baseline: no-protein control; direction: higher = stronger binding
Target: RNA binding protein fox-1 homolog 2, RRM domain, GST-SBP tag (RBFOX2, Homo sapiens, UniProt O43251-10, residues 100-194)
Notes: natural RNA segment, single round, ends assumed
Constant ends, left off below: GGGAGUUCUACAGUCCGACGAUC … UGGAAUUCUCGGGUGCCAA
Target sequence (chain): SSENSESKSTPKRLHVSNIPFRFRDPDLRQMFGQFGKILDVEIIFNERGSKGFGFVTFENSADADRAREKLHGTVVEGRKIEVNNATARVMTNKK
| Sequence | RBNS enrichment (R) |
| --- | --- |
| UAGACCAUAGACUCUAGCCCAGGCUGAUCUGGAGCUUACUGUAUAGCCCAGGCUUUGAACUGGCCUUAGCCUUCCACAUGCUAGGAUUAUAGGUAUGAACCAACAUGCCC | 0.44 |
| CCUAGAGGAGCGGAGUUUUCCGAGAGGACCAUCUCCUGGUUUCCUGAAGGAGGUGGGUGGAAACGGCUCUUGUUUGAAAGAACUUAGGGAGGACCAUUGGCUUGCCAAGA | 0.538 |
| CCAGACAAGGAGAGCGGAGGAGGAAGUCAUGGGAACGCAGCCUCCAGUUGUAGCAGGUUUCACUAUUCCUAUGCUGGGGUACACAGUGAGAGUACUCACUUUUCACUUGU | 0.555 |
| CUCUUCCAUGUUUAUACUUGGCCUCUUCUGCAAGAGGAAUCUCUUGAAAACAGGGGCACACAGAAAUUUGAUUUGUGGCCAAAUUGGAUGAAAAAGAUGAGGCUCUAAGG | 0.345 |
| UUUCUGUAUUGUCUAGGUUAAGCCCACUUUAGGAGAUCCUUUACUCAUUAACUUAACCAACAAUGUGUAUUGAGUCUCUGCUGUAUAUCUGUGAUGCUCUGUCCCAAGCC | 0.318 |
| GGGGAGCCUCUUUUCUCAGGCUUGACACCUGUCUGAAUAAGAGUGAUUAGAGCCGCAUAAUAUCCCUCUCUUGGCUAUUGAAUAAGUGGUUCACAUACCCAACCCUGUAG | 0.339 |
| GAGAAAAGAGAGAUGGGAACCGACGUUGAAAAGGAGGAAACAGAGACCAAGACAGAGCAAGCCAGUGAAGAACAUGAGCAGGAAACAGCUGCUCCUGAGCAUGAAGGAAC | 8.37 |
| GAAUGGCAACAGGUUUGCUGGGGCAGAGGCACUGCCUAAGUGGGAGCAUGCACGUGAAAAUAGAAAGGUAAUUUAACAACACACAGACACCCAGAGACUUGGUCUCUGCA | 20.7 |
| UGGCCUCCAGCAGGAGCACAGCUCAGCAGGGUCCCUGCUGCCCACCCCUCUGAGCCUUUUCUCCCCAGGGUAUGGCUCCUGCUGAGUUUCUUGUCCAGCAGGGCCUUGAC | 0.299 |
| AGGUUCUCUUUGCGCUUGCCUUCUCACACCCCCCGACUCCCCACCCAUAUUUUGGUACCAGUUUCUCCUCAUGAAAUGCAGUCCCUGGAUUCUGUGCCAUCUGAACAUGC | 0.441 |
| CCUGGGAAUGUGUCCUCAUCACUUUAAUUGCAGAGUUACUGGGAAAUCAUUGUGCUACUCUGUGGAUGAGGGUUCAUUCUUAUGUAUGUUCAGAUGUCAUGUGCUGUCUA | 0.819 |
| UUAAAUUUGUUUCAAGAGCUAUUGAAUUUUCAAAUUUUCAGUGUAUUUAUAACUUUUAAGAACAUGAAGUAUUAGCUUAAUAUAGUUUUCUCUGUUGGUUUCUUCCUCAA | 0.66 |

Series 2 — technique: RNA Bind-n-Seq; molecule type: RNA; sample: in vitro; tested at: 200 nM; notes: whole 134-nt RNA, ends assumed; together with: 150 mM LiCl; baseline: input library; direction: higher = stronger binding; library: 7-deaza-guanosine replaces G
Target: Ras GTPase-activating protein-binding protein 1, full length (G3BP1, Homo sapiens, UniProt Q13283)
Sequence of UniProt Q13283 (whole entry, looked up): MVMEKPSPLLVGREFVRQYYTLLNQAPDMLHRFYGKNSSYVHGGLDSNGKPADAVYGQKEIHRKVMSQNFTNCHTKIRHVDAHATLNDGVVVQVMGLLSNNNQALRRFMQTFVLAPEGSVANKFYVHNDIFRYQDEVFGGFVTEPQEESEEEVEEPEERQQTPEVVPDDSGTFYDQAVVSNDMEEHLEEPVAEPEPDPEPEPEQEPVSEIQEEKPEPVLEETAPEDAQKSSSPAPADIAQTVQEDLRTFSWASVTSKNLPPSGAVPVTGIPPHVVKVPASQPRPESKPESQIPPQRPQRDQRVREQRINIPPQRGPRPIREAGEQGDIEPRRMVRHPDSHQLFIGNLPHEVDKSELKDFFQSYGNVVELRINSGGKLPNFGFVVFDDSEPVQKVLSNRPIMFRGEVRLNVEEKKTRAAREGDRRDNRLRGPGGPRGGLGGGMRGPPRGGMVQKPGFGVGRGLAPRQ
Constant ends, left off below: GGGAGUUCUACAGUCCGACGAUC … UGGAAUUCUCGGGUGUCAAGG
| Sequence | log2 enrichment |
| --- | --- |
| UGGGAGGUGGAUUUUGUUUAUUUUGUUAGCUCAUUUCCAGGGGUGGGAAUUUUUUUUUAAUAUGUGUCAUGAAUAAAGUUGUUUUUGAAA | -0.224 |
| CCUCAAGUCCUGUGCUACACAUCGUAUGUACCGAAUCGGGGUGGUGGUGGGGAAAGUAUUAUGUUACGCCGUUCGGAUCUGCACUUCCAG | 0.0439 |
| CACAGACAACACGCACCCACACAGACACAGAGGGAAGGGGUUGGGAUGGGGACAGGGUGCACAGCAGUGCGGGGUAGGACCCCAGCCCCU | 0.463 |
| AAGUCCUGUGCUACACAUCGUAUGUACCGAAUCGGAAAAGGAAAAGGGGAAAAGGGAAAGUAUUAUGUUACGCCGUUCGGAUCUGCACUU | -0.249 |
| UAACUUUAGAGGAGGAUCGGAUGGAUAUGGCAGUGGACGUGGAUUUGGGGAUGGCUAUAAUGGGUAUGGAGGAGGACCUGGAGGUGGCAA | 0.233 |
| UCAAGUCCUGUGCUACACAUCGUAUGUACCGAAUCGGUUUUUGGAAAAAGGUGGAAAGUAUUAUGUUACGCCGUUCGGAUCUGCACUUCC | -0.548 |
| CCUCAAGUCCUGUGCUACACAUCGUAUGUACCGAAUCGGGUGGGGUGGGGUGGAAAGUAUUAUGUUACGCCGUUCGGAUCUGCACUUCCA | -0.864 |
| UGGCCCUGGUGGCAUGCGGGGAGGAAGAGGUGGCCUCAUUGAUCGUGGUGGUCCCGGUGGAAUGUUCAGAGGUGGCCGUGGUGGAGACAG | 0.353 |
| CAAGUCCUGUGCUACACAUCGUAUGUACCGAAUCGGUUUGGGGUUUGGGGUUUGGGAAAGUAUUAUGUUACGCCGUUCGGAUCUGCACUU | -1.48 |
| GUCCUGUGCUACACAUCGUAUGUACCGAAUCGGGAAAAAGGGGAAAAAGGAAAAAGGGGAAAGUAUUAUGUUACGCCGUUCGGAUCUGCA | 0.228 |
| CCUGUGCUACACAUCGUAUGUACCGAAUCGGGGAAAAAAGGGAAAAAAGGGAAAAAAGGGAAAGUAUUAUGUUACGCCGUUCGGAUCUGC | 0.367 |

Series 3 — technique: protein-binding microarray; molecule type: double-stranded DNA, one strand shown; sample: in vitro; tested at: 940 nM top; notes: 60-bp whole probe; together with: salmon DNA 0.4 mg/ml; baseline: random background probes; direction: higher = stronger binding; constant ends, left off below: GCCTAGCAC … GTCTTGATTCGCTTGACGCTGCTG
Target: Interferon regulatory factor 5, full length, phosphomimetic (IRF5, Homo sapiens, UniProt Q13568-2, residues 1-514, S451D/S453D/S456D/S462D)
| Sequence | fitted relative affinity [z-score] |
| --- | --- |
| TTAGGTTTCGGGAATGGGTTAGTGCTA | 8.33 |
| GACGATATCGGTCTCGAGACGTGCTAG | 0.939 |
| TTCCCTTTTAAGTTCTCTGAGTGCTAG | 1.41 |
| TTACATATCAGACTGGATTAGTGCTAG | -0.194 |
| GACGGTTTCGAGTATCGGGACGTGCTA | 7.58 |
| AGGAATTTCCCACTTTCAGTGTGCTAG | 0.658 |
| TTAGGTTTCGACTACCGGTTAGTGCTA | 9.9 |
| TTAGGACTGGGTCTCGGATAGTGCTAG | 0.106 |
| GACTGTTTCGACACTGGGGACGTGCTA | 2.83 |
| GACGAACTGAGTATCGAGCCGTGCTAG | 0.61 |
| GACGGACTGGGGACTGGAGACGTGCTA | -0.265 |
| TTTTTTATCAATCATTTTAGTGTGCTA | 1.09 |
| TCAAATTACCTTTTCACACTGTGCTAG | 0.746 |
| TTAGTTCTCCTTATCCTTTAGTGCTAG | 1.49 |
| TCATTTCTCTCTGTGACACTGTGCTAG | 1.61 |
| TTAGAACGGAGTTTCGATTAGTGCTAG | 6.78 |
| GACGATATCAGTATCGACACGTGCTAG | 2.45 |
| TTACGACTGCTTCTCCTTTAGTGCTAG | 0.829 |
| CCCCCTTTTATATTGTAAGCGTGCTAG | 0.471 |
| TCAGGTTTCTGGTTTATACTGTGCTAG | 3.17 |
| GACGGACTGCATCTCCTGACGTGCTAG | -0.375 |
| TTTCCCTAGAAGACGAAAGAGTGCTAG | 0.955 |
| CACGATTTCAGTATCGAGACGTGCTAG | 2.25 |
| ATTATGTTTGCTTTGTTCTGGTGCTAG | 0.0273 |
| TTAGACCTCAGACTGGATTAGTGCTAG | -0.323 |

Series 4 — technique: protein binding microarray; molecule type: double-stranded DNA, one strand shown; sample: in vitro; tested at: not given; baseline: not given; direction: higher = stronger binding
Target: Histone acetyltransferase KAT6A, winged helix 2, GST fusion (KAT6A, Homo sapiens, UniProt Q92794, residues 85-181)
Notes: 8-mer, flanks averaged, mean of 2 arrays, mostly near background
Construct (chain): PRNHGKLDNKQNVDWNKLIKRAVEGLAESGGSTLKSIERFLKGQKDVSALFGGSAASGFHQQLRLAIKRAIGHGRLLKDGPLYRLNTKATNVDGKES
| Sequence | E-score |
| --- | --- |
| CGGCATCA | 0.178 |
| ATCTAATA | 0.0237 |
| CGTTAATC | -0.0636 |
| CGGACATC | -0.155 |
| AACTTATG | 0.108 |
| ACTGAAGC | 0.079 |
| CTTTACAC | 0.0376 |
| AACGGCCG | 0.109 |
| CCTTCCCC | 0.0552 |
| TAGACCGA | 0.0377 |
| ACAGTGGT | -0.0959 |
| ATAGGGAA | 0.0302 |
| AGCACGGC | 0.0699 |
| CTGCACTC | 0.0423 |
| CTCCAACC | 0.049 |
| ACCGTCGG | 0.0753 |
| AACACCCT | -0.00239 |
| ACGGAATA | 0.0846 |
| ATGGTCAA | 0.0138 |
| CTAATCGC | -0.00513 |

Series 5 — technique: universal PBM; molecule type: double-stranded DNA, one strand shown; sample: in vitro; tested at: not given; direction: higher = stronger binding
Target: Sal-like protein 4, full length isoform B (SALL4, Homo sapiens, UniProt Q9UJQ4-2, residues 1-616)
Notes: 8-mer, flanks averaged, mean of replicates
| Sequence | E-score |
| --- | --- |
| ACTTGACA | 0.0867 |
| TATCTTGA | 0.145 |
| AACCAATT | 0.189 |
| AGCGCTGC | -0.14 |
| ACTCTATG | -0.108 |
| CCATCTCG | -0.268 |
| CCCACCCG | -0.121 |
| CTGCTGGA | -0.0812 |
| TACTAAAA | 0.233 |
| GCGTTTCA | -0.0602 |
| CCGTGGAA | -0.013 |
| AATCTGTG | 0.112 |
| GCACCGGC | -0.361 |
| CCGATTGC | -0.0803 |
| TAAAGTGA | 0.245 |
| ACATCCTA | 0.12 |
| AAAACCCA | 0.0895 |
| ATGATCCC | 0.0331 |
| CCATGGGA | -0.168 |
| AATAATCG | 0.331 |
| ACGGAATG | -0.135 |
| AATACGCT | 0.233 |
| CTCCTGGA | -0.251 |
| GGACAAAA | 0.0791 |
| AGAACCAC | -0.0703 |

Excerpt of the above (series 3):
| Sequence | fitted relative affinity [z-score] |
| --- | --- |
| TTAGGACTGGGTCTCGGATAGTGCTAG | 0.106 |
| TTTTTTATCAATCATTTTAGTGTGCTA | 1.09 |
| TCAAATTACCTTTTCACACTGTGCTAG | 0.746 |
| AGGAATTTCCCACTTTCAGTGTGCTAG | 0.658 |
| TTAGAACGGAGTTTCGATTAGTGCTAG | 6.78 |
| GACGGTTTCGAGTATCGGGACGTGCTA | 7.58 |
| TCATTTCTCTCTGTGACACTGTGCTAG | 1.61 |
| TTACGACTGCTTCTCCTTTAGTGCTAG | 0.829 |
| TCAGGTTTCTGGTTTATACTGTGCTAG | 3.17 |
| TTCCCTTTTAAGTTCTCTGAGTGCTAG | 1.41 |
